Measured values gathered from unrelated publications.
Compare with care: the assays were run in different laboratories. Values joined by “and” are separate records of one study, mostly repeats; a detail may differ. ± gives the spread as reported.
IDE: Insulin-degrading enzyme (IDE, Homo sapiens, UniProt P14735)

Compound | target or system | test | setting | scale | measurement | value
Cc1cc(C2CCCCC2)n(O)c(=O)c1 | BT-12 | cell viability, MTT | 10 µM, 72 h |  | inhibition | 87.2%
COc1cc2ncnc(Nc3ccc(Oc4ccccc4)cc3C)c2cc1OC.O=C(O)C(F)(F)F | NCI-H2087 (BRAF L597V) | cell viability | concentration not given, 72 h, together with: trametinib | direction not given | Bliss synergy score | -121%
Cc1ccc(C(=O)N(CCCN)[C@@H](c2nc3cc(Cl)ccc3c(=O)n2Cc2ccccc2)C(C)C)cc1 | BT-12 | cell viability, MTT | 10 µM, 72 h |  | inhibition | 95.7%
Cc1cn([C@@H]2O[C@H](CO)[C@@H](O)[C@H]2O)c(=O)nc1N | HBL-1 |  | 0.1 µM, 120 h |  | viability | 87.1%
COc1cnc2cccc(N3CCc4c(cc(Cn5ccnc5C)cc4-c4cn(C)nc4C(F)(F)F)C3=O)c2c1 | RS4 | cell growth, inhibitor | 120 h |  | EC50 | 0.0452 µM
O=C(Nc1nc2ccccc2n1CCN1CCOCC1)c1cccc([N+](=O)[O-])c1 | HeLa expressing Ub(G76V)-GFP | Ub(G76V)-GFP degradation, inhibitor, cycloheximide chase | 12 µM |  | inhibition | 43%
CCS(=O)(=O)c1cccc(-c2cc(C(=O)NC3CCN(C)CC3)c(C)c3[nH]c4ncc(C)cc4c23)c1 | BT-12 | cell viability, MTT | 10 µM, 72 h |  | inhibition | 94.4%
Cc1[nH]nc2ccc(-c3cncc(OC[C@@H](N)Cc4ccccc4)c3)cc12 | hiPSC cardiomyocytes | CellTiter-Glo | concentration not given, 24 h | baseline: vehicle | ATP level | 107%
COc1cccc2c1C(=O)c1c(O)c3c(c(O)c1C2=O)C[C@@](O)(C(=O)CO)C[C@@H]3O[C@H]1C[C@H](N)[C@H](O)[C@H](C)O1 | A-172 | WST-1 | 72 h, highest tested concentration |  | maximal cytotoxicity | 92.3%
Oc1cc(O)c2cc(O)c(-c3cc(O)c(O)c(O)c3)[o+]c2c1 | HBL-1 |  | 0.1 µM, 120 h |  | viability | 134%
Cn1cc(Nc2nccc(-c3ccc4c(c3)CN(C3COC3)CC[C@H]4NC(=O)c3cn(C(C)(C)C)nn3)n2)cn1 | mouse splenic B cells | measured: GP6 signalling pathway | 30 mg/kg, IgD-activated in vivo | baseline: vehicle, direction not given | pathway activation z-score | 3.36
COc1ccccc1-c1ccc([C@@H]2[C@@H](C#N)N(C(=O)CN(C)C)[C@H]2CO)cc1 | IDE | enzyme activity, inhibitor, fluorogenic kinetic | together with: Mca-RPPGFSAFK(Dnp)-OH substrate |  | EC50 | 5.2 µM
CCN(CC)Cc1ccc2cc(COC(=O)Nc3ccc(C(=O)NO)cc3)ccc2c1 | HBL-1 |  | 0.1 µM, 120 h |  | viability | 93.2%
N#CC(c1ccnc(NCCc2cccnc2)n1)c1nc2ccccc2s1 (stereo not shown) | HeLa expressing Ub(G76V)-GFP | Ub(G76V)-GFP degradation, cycloheximide chase | 12 µM |  | inhibition | 86%
Cc1cc(Nc2ncc(Cl)c(Nc3ccccc3S(=O)(=O)C(C)C)n2)c(OC(C)C)cc1C1CCNCC1 | CLB-GE | phosphoproteomics LC-MS/MS, measured: SLC35E1 phosphorylation | 200 nM, 60 min | baseline: untreated | log2 fold change | -2.43
Cc1ccccc1-c1ccc([C@H]2[C@@H](CO)N3CCCCN(S(=O)(=O)c4cn(C)cn4)C[C@@H]23)cc1 | IDE | enzyme activity, inhibitor, fluorogenic kinetic | together with: Mca-RPPGFSAFK(Dnp)-OH substrate |  | EC50 | > 100 µM
CN(C)C/C=C/C(=O)Nc1cc2c(Nc3ccc(F)c(Cl)c3)ncnc2cc1O[C@H]1CCOC1 | KB-C2 spheroids |  | 6 µM, day 12, single dose |  | spheroid volume | 12.9 ± 0.7 mm³
Cc1cc(Nc2ccc(NC(=O)c3ccc(Nc4ccnc5ccccc45)cc3)cc2)nc(N)n1 | HBL-1 |  | 0.5 µM, 120 h |  | viability | 0.453%
CCS(=O)(=O)c1nc(C2CC2)cc(C(F)(F)F)n1 | HeLa Kyoto | RelA nuclear import, high content imaging | 0.5 µM, 3 h, together with: 1 µM PMA, 60 min |  | cells with nuclear RelA | 73.8% and 90.6%
Clc1ccc(N/N=C(\c2ccccc2)c2ccccn2)nc1 | HBL-1 |  | 0.5 µM, 120 h |  | viability | 5.58%
O=C([O-])CN(CCN(CC(=O)[O-])Cc1cc(CCC(=O)NCCCCCC(=O)NCCCC[C@H](NC(=O)N[C@@H](CCC(=O)O)C(=O)O)C(=O)O)ccc1[O-])Cc1cc(CCC(=O)O)ccc1[O-].[68Ga+3].[OH3+] | LNCaP |  | 25 nM, 1 h, 4 °C |  | internalized activity | 0.03 ± 0.02 %AD/mg protein
Nc1ncn([C@H]2C[C@H](O)[C@@H](CO)O2)c(=O)n1 | HBL-1 |  | 0.5 µM, 120 h |  | viability | 37.5%
Cn1cc(-c2ccc(-c3cncc(Cl)c3N3CCC4(CCNC4=O)CC3)cc2)cn1 | COLO 205 | microarray, measured: PDGFB | concentration not given, 6 h | baseline: untreated cells | fold change in expression | 1.14
O=C1NC(=O)c2c1c1c3ccccc3[nH]c1c1[nH]c3cc(Br)ccc3c21 | HeLa expressing Ub(G76V)-GFP | Ub(G76V)-GFP degradation, cycloheximide chase | 12 µM |  | inhibition | -6%
O=C(CCCCCN1C(=O)c2cccc3cccc(c23)C1=O)NO | HBL-1 |  | 1 µM, 120 h |  | viability | 26.3%

Excerpt of the above:
Compound | target or system | test | setting | scale | measurement | value
O=C1NC(=O)c2c1c1c3ccccc3[nH]c1c1[nH]c3cc(Br)ccc3c21 | HeLa expressing Ub(G76V)-GFP | Ub(G76V)-GFP degradation, cycloheximide chase | 12 µM |  | inhibition | -6%
Cc1cc(Nc2ccc(NC(=O)c3ccc(Nc4ccnc5ccccc45)cc3)cc2)nc(N)n1 | HBL-1 |  | 0.5 µM, 120 h |  | viability | 0.453%
Cc1cc(C2CCCCC2)n(O)c(=O)c1 | BT-12 | cell viability, MTT | 10 µM, 72 h |  | inhibition | 87.2%
